Measured values collected from several papers.
Lines come from different studies, so protocols differ.

CC(C)C[C@@H]1NC(=O)[C@@H](Cc2ccccc2)NC(=O)[C@H](CCN)NC(=O)[C@@H](NC(=O)[C@H](CCN)NC(=O)[C@@H](N)[C@@H](C)O)CCNC(=O)[C@H]([C@@H](C)O)NC(=O)[C@H](CCN)NC(=O)[C@H](CCN)NC1=O — MIC (Escherichia coli; checkerboard; BW25113; compound alone): > 200 µg/mL
CN[C@H](CC(C)C)C(=O)N[C@H]1C(=O)N[C@@H](CC(N)=O)C(=O)N[C@H]2C(=O)N[C@H]3C(=O)N[C@H](C(=O)N[C@H](C(=O)O)c4cc(O)cc(O)c4-c4cc3ccc4O)[C@H](O)c3ccc(c(Cl)c3)Oc3cc2cc(c3O[C@@H]2O[C@H](CO)[C@@H](O)[C@H](O)[C@H]2O[C@H]2C[C@](C)(N)[C@H](O)[C@H](C)O2)Oc2ccc(cc2Cl)[C@H]1O — MIC (Listeria ivanovii; BAA-139): 0.5 µM
Cc1c(CN(C)C(=O)/C=C/c2cnc3c(c2)CC(CCN)C(=O)N3)oc2ccccc12.Cl (stereo not drawn) — MIC (Enterobacter cloacae; broth microdilution; BAA-2468): 8 µg/mL
CNC(C)C1CCC(N)C(OC2C(N)CC(N)C(OC3OCC(C)(O)C(NC)C3O)C2O)O1 (stereo not drawn) — MIC (Enterobacter cloacae; BNCC 185928): 4 µg/mL
CNC(C)C1CCC(N)C(OC2C(N)CC(N)C(OC3OCC(C)(O)C(NC)C3O)C2O)O1 (stereo not drawn) — MIC (Pseudomonas aeruginosa; clinical isolate RKI-No_613/16): 8 µg/mL
Cn1cc(-c2ccc(-c3cncc(Cl)c3N3CCC4(CCNC4=O)CC3)cc2)cn1 — log2 fold change (COLO 205; gene expression, microarray, refers to: PDE4A mRNA; concentration not given, 6 h; baseline: untreated cells): 1.43
CC1(C)SC2C(NC(=O)C(NC(=O)C3=C(O)C(Cc4ccccc4)NC3=O)c3ccccc3)C(=O)N2C1C(=O)O (stereo not drawn) — MIC (Escherichia coli; broth microdilution; BW25113 wild type; 18 h): 25 µg/mL
CC1(C)S[C@@H]2[C@H](NC(=O)[C@H](N)c3ccccc3)C(=O)N2[C@H]1C(=O)O — MIC (Bordetella bronchiseptica; broth microdilution; ATCC 10580): 86.2 µM
CN(C)[C@@H]1C(O)=C(C(N)=O)C(=O)[C@@]2(O)C(O)=C3C(=O)c4c(O)cccc4[C@@](C)(O)[C@H]3C[C@@H]12 — MIC (Acinetobacter calcoaceticus; broth microdilution; 150): 2 µg/mL
CC(=O)NC[C@H]1CN(c2ccc(N3CCOCC3)c(F)c2)C(=O)O1 — MIC (Bacteroides fragilis; HM-714): 5.93 µM
C[C@@H](O)[C@H]1C(=O)N2C(C(=O)O)=C(S[C@@H]3CN[C@H](C(=O)N(C)C)C3)[C@H](C)[C@H]12 — MIC (Enterobacter cloacae; BNCC 185928): 0.125 µg/mL
N=C(N)c1ccc(OCc2ccc(Br)cc2COc2ccc(C(=N)N)cc2)cc1 — MIC (Escherichia coli; 552100; compound alone): > 200 µg/mL
CN[C@H](CC(C)C)C(=O)N[C@H]1C(=O)N[C@@H](CC(N)=O)C(=O)N[C@H]2C(=O)N[C@H]3C(=O)N[C@H](C(=O)N[C@H](C(=O)O)c4cc(O)cc(O)c4-c4cc3ccc4O)[C@H](O)c3ccc(c(Cl)c3)Oc3cc2cc(c3O[C@@H]2O[C@H](CO)[C@@H](O)[C@H](O)[C@H]2O[C@H]2C[C@](C)(N)[C@H](O)[C@H](C)O2)Oc2ccc(cc2Cl)[C@H]1O — MIC (Bordetella bronchiseptica; broth microdilution; ATCC 10580): 2.69 µM
N=C(N)c1ccc(OCCCCCOc2ccc(C(=N)N)cc2)cc1 — MIC (Escherichia coli; 552100; compound alone): 200 µg/mL
C[C@@H](O)[C@H]1C(=O)N2C(C(=O)O)=C(S[C@@H]3CN[C@H](C(=O)N(C)C)C3)[C@H](C)[C@H]12 — MIC (Morganella morganii; broth microdilution; clinical isolate RKI 599/16): > 64 µg/mL
Cc1cc(-c2cn[nH]c2-c2cccc(OCc3cccc(C#N)c3)c2)cc(C)n1 — MIC (Enterobacter cloacae; broth microdilution; ATCC 29893): 4 µg/mL
Cc1ccc(CCC(=O)Nc2nnc(S(N)(=O)=O)s2)cc1 — MIC (Bacteroides fragilis; HM-714): > 784 µM
C[C@@H](O)[C@H]1C(=O)N2C(C(=O)O)=C(SCCN=CN)C[C@H]12 — MIC (Enterobacter cloacae; BNCC 185928): 2 µg/mL
CC[C@H](C)[C@H](NC(=O)[C@H](CCCCN)NC(=O)[C@H](CCC(=O)O)NC(=O)[C@H](CCCCN)NC(=O)[C@H](CO)NC(=O)[C@H](CCCCN)NC(=O)[C@H](CCCNC(=N)N)NC(=O)[C@H](Cc1ccccc1)NC(=O)[C@H](Cc1ccccc1)NC(=O)[C@H](CC(=O)O)NC(=O)CNC(=O)[C@H](CC(C)C)NC(=O)[C@@H](N)CC(C)C)C(=O)NCC(=O)N[C@@H](CCCCN)C(=O)N[C@@H](CCC(=O)O)C(=O)N[C@@H](Cc1ccccc1)C(=O)N[C@@H](CCCCN)C(=O)N[C@@H](CCCNC(=N)N)C(=O)N[C@H](C(=O)N[C@H](C(=O)N[C@@H](CCC(N)=O)C(=O)N[C@@H](CCCNC(=N)N)C(=O)N[C@H](C(=O)N[C@@H](CCCCN)C(=O)N[C@@H](CC(=O)O)C(=O)N[C@@H](Cc1ccccc1)C(=O)N[C@@H](CC(C)C)C(=O)N[C@@H](CCCNC(=N)N)C(=O)N[C@@H](CC(N)=O)C(=O)N[C@@H](CC(C)C)C(=O)N[C@H](C(=O)N1CCC[C@H]1C(=O)N[C@@H](CCCNC(=N)N)C(=O)N[C@H](C(=O)N[C@@H](CCC(=O)O)C(=O)N[C@@H](CO)C(=O)O)[C@@H](C)O)C(C)C)[C@@H](C)CC)C(C)C)[C@@H](C)CC — MIC (Bordetella bronchiseptica; broth microdilution; ATCC 10580; 16 h, 37 °C, cation-adjusted Mueller-Hinton broth): 128 µg/mL
CC1(C)S[C@@H]2[C@H](NC(=O)[C@H](N)c3ccc(O)cc3)C(=O)N2[C@H]1C(=O)O — MIC (Enterobacter cloacae; BNCC 185928): 4 µg/mL
CCCCCCCCCC(=O)N[C@@H](Cc1c[nH]c2ccccc12)C(=O)N[C@H](CC(N)=O)C(=O)N[C@@H](CC(=O)O)C(=O)N[C@@H]1C(=O)NCC(=O)N[C@@H](CCCN)C(=O)N[C@@H](CC(=O)O)C(=O)N[C@H](C)C(=O)N[C@@H](CC(=O)O)C(=O)NCC(=O)N[C@H](CO)C(=O)N[C@@H]([C@H](C)CC(=O)O)C(=O)N[C@@H](CC(=O)c2ccccc2N)C(=O)O[C@@H]1C — MIC (Staphylococcus aureus; SH1000; together with: N-acetylsphingosine, molar ratio 0.5): 1 µg/mL
C[C@H]1COc2c(N3CCN(C)CC3)c(F)cc3c(=O)c(C(=O)O)cn1c23 — MIC (Enterobacter cloacae; agar dilution; CDC 1000654): 32 µg/mL
CC1(C)SC2C(NC(=O)C(NC(=O)C3=C(O)C4(CC4)NC3=O)c3ccccc3)C(=O)N2C1C(=O)O (stereo not drawn) — MIC (Escherichia coli; broth microdilution; ATCC 25922 wild type; no clavulanic acid): 25 µg/mL
N=C(N)c1ccc(OCc2ccccc2COc2ccc(C(=N)N)cc2)cc1 — MIC (Escherichia coli; BW25113; in combination, lowest-FICI combination, together with: vancomycin): > 200 µg/mL

A few entries again:
CCCCCCCCCC(=O)N[C@@H](Cc1c[nH]c2ccccc12)C(=O)N[C@H](CC(N)=O)C(=O)N[C@@H](CC(=O)O)C(=O)N[C@@H]1C(=O)NCC(=O)N[C@@H](CCCN)C(=O)N[C@@H](CC(=O)O)C(=O)N[C@H](C)C(=O)N[C@@H](CC(=O)O)C(=O)NCC(=O)N[C@H](CO)C(=O)N[C@@H]([C@H](C)CC(=O)O)C(=O)N[C@@H](CC(=O)c2ccccc2N)C(=O)O[C@@H]1C — MIC (Staphylococcus aureus; SH1000; together with: N-acetylsphingosine, molar ratio 0.5): 1 µg/mL
